Results from different studies.
Parts stem from different laboratories: compare values within a part only.
UniProt P10721, sequence (whole entry, unmodified, looked up): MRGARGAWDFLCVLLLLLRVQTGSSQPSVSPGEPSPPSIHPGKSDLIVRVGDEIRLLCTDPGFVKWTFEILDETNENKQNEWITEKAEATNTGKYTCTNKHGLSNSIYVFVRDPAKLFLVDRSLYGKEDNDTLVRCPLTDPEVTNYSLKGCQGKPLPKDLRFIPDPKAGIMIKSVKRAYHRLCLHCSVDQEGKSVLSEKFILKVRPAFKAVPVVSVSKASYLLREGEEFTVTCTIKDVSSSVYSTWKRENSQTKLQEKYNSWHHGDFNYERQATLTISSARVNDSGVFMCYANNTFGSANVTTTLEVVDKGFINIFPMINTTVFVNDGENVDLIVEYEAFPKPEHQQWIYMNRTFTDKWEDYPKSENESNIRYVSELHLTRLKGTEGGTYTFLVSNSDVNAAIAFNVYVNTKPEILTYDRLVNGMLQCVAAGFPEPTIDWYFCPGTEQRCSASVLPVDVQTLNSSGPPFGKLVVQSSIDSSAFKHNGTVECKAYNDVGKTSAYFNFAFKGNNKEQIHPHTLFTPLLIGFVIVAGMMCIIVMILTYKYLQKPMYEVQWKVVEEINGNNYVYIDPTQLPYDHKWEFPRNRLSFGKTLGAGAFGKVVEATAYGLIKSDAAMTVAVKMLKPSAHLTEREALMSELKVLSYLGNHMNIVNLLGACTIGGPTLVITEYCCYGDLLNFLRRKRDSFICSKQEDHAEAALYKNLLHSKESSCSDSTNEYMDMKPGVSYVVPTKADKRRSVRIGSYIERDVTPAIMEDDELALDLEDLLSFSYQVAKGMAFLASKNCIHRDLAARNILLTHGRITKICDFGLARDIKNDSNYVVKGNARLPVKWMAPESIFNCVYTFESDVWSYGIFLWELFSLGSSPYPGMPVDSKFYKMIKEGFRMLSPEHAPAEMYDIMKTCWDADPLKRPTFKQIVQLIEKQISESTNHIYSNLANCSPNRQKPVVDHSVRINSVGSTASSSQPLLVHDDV
UniProt P29320, sequence (whole entry, looked up): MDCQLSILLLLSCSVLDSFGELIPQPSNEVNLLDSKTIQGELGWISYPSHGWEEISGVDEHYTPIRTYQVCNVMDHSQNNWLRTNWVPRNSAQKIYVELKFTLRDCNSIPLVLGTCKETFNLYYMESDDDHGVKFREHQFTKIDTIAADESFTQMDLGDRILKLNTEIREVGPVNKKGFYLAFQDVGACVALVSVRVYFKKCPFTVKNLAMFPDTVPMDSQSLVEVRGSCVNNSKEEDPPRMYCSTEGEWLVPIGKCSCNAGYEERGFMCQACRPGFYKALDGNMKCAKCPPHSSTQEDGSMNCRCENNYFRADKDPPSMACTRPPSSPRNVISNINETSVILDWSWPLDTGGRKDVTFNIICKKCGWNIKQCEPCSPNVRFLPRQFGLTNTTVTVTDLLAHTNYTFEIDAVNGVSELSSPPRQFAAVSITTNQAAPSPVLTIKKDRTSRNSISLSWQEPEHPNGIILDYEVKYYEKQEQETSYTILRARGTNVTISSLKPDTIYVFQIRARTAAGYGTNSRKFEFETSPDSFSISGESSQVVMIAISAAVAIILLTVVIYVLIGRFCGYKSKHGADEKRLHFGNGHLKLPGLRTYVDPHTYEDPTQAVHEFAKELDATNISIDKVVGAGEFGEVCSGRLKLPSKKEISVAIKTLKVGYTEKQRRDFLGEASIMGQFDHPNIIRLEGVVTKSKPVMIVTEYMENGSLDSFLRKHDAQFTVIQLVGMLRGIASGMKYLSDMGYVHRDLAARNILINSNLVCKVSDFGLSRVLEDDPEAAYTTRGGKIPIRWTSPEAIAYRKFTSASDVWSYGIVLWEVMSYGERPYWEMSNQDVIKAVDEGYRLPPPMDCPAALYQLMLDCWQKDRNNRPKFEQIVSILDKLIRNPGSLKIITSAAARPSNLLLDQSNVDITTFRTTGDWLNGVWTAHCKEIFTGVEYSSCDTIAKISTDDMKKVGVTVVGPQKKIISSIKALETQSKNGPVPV
UniProt P51955, sequence (whole entry, looked up): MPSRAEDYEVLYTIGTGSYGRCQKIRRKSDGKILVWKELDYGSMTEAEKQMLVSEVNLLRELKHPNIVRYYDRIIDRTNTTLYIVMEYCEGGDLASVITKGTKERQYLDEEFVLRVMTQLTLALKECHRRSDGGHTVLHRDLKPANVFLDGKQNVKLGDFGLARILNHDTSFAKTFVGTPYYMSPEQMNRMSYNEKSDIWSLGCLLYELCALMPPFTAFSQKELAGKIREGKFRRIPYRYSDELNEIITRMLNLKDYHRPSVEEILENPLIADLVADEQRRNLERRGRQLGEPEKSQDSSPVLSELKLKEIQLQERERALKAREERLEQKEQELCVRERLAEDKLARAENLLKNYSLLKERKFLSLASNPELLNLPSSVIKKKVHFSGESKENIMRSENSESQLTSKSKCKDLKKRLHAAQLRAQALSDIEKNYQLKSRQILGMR
UniProt P48729, sequence (whole entry, looked up): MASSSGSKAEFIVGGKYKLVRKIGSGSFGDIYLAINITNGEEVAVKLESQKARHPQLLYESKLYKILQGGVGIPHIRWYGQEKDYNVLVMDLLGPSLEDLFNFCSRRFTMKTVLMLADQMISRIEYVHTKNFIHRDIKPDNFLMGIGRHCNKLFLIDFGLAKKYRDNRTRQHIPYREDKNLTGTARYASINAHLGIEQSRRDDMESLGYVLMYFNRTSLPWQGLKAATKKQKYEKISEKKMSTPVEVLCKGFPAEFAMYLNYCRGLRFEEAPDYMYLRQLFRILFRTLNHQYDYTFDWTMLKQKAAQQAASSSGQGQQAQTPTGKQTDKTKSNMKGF
UniProt Q13237, sequence (whole entry, looked up): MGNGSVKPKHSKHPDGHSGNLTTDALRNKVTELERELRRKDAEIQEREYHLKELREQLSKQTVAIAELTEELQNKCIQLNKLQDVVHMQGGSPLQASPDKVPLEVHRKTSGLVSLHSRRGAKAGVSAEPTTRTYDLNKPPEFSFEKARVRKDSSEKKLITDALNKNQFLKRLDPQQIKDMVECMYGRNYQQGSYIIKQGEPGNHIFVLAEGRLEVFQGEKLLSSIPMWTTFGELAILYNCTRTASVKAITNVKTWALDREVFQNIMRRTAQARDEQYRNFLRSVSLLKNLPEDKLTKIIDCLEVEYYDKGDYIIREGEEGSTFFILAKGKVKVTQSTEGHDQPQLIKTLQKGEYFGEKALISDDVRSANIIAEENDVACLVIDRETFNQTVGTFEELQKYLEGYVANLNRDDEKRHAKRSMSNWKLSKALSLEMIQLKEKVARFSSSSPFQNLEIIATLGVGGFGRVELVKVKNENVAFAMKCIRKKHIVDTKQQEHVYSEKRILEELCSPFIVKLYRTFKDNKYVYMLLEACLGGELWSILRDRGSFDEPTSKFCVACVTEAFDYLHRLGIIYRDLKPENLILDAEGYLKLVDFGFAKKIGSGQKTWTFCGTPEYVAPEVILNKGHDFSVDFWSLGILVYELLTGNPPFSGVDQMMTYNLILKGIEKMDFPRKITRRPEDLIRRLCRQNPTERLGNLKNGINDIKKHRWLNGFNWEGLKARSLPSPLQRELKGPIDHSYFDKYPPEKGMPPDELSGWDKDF
UniProt O15111, sequence (whole entry, looked up): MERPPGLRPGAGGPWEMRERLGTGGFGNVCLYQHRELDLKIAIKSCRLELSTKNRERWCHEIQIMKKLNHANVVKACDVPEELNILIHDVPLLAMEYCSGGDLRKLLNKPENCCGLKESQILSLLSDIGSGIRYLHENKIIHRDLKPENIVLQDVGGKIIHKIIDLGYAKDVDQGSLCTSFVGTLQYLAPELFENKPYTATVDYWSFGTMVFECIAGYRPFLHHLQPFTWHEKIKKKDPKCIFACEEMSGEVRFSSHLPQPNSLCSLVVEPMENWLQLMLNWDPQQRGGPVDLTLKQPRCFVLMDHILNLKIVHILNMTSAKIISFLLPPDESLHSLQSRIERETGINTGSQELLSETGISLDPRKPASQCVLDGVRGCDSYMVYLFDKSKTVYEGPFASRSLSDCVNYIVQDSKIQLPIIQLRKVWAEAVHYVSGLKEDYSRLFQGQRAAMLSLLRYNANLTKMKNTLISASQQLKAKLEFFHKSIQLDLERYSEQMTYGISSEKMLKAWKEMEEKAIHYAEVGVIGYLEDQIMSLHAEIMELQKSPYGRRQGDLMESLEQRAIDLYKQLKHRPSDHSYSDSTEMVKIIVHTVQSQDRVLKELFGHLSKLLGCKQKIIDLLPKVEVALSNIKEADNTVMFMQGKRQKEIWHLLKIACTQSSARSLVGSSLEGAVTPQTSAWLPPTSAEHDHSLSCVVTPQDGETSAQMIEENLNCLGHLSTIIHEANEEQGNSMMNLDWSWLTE

Set 1
SMILES: CS(=O)(=O)N1CCCC(NC(=O)[C@H](CCC2CCCCC2)NC(=O)c2ccc(CNc3ncnc4c3nnn4-c3ccccc3)cc2)C1 (stereo partly shown)
Effect on: cell-free assay
Technique: competition with immobilised ligand
Tested at: 0.1 µM
Quantity: remaining binding
NEK2 (Homo sapiens, UniProt P51955): 100%
KDR (Homo sapiens, UniProt P35968): 85%
CHUK (Homo sapiens, UniProt O15111): 100%
EPHA3 (Homo sapiens, UniProt P29320): 75%
FLT3 (Homo sapiens, UniProt P36888, D835H): 94%

Set 2
SMILES: CN1CCN(C(=O)c2ccc(NC(=O)Nc3ccc(N(C)c4ccnc(Nc5ccc(CS(C)(=O)=O)cc5)n4)cc3)cc2)CC1
Effect on: binding
Tested at: 1 µM
Quantity: remaining binding
ACVRL1 (Homo sapiens, UniProt P37023); competition with immobilised ligand: 79%
WNK3 (Homo sapiens, UniProt Q9BYP7): 93%
CSNK1A1 (Homo sapiens, UniProt P48729): 85%
KIT (Homo sapiens, UniProt P10721, D816H): 27%
PRKG2 (Homo sapiens, UniProt Q13237): 100%

Set 3
Target: Mitogen-activated protein kinase 14 (MAPK14, Homo sapiens, UniProt Q16539)
UniProt Q16539, sequence (whole entry, looked up): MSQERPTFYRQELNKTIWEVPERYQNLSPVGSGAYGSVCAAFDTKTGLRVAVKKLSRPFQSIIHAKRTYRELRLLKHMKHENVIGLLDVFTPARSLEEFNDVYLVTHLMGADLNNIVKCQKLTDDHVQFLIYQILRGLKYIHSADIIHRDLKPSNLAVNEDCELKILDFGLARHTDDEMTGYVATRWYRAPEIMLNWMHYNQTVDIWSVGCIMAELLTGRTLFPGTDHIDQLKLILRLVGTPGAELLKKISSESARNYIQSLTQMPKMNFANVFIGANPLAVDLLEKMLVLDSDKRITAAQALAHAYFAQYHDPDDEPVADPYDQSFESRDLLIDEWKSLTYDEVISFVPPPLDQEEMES
Effect on: enzyme activity
Action: inhibitor
Tested at: 0.5 µM
Baseline: control
Quantity: remaining activity
Nc1ccc2ncnc(NCCc3ccc(Oc4ccccc4)cc3)c2c1: 95.7%
COc1ccc(OC)c2c(=S)c3ccccc3[nH]c12: 104%
CCOC(=O)c1c(C)[nH]c(/C=C2\C(=O)Nc3ccccc32)c1C: 134%
Nc1ncnc2n[nH]c(Nc3ccc(F)cc3)c12: 79.5%
O=c1c2ccccc2[nH]c(=S)n1CCN1CCC(=C(c2ccc(F)cc2)c2ccc(F)cc2)CC1: 99%
CC(C)[C@H](CO)Nc1nc(Nc2cc(N)cc(Cl)c2)c2ncn(C(C)C)c2n1: 98.9%
O=C(O)c1ccc2c3c1cccc3c(=O)n1c3ccccc3nc21: 99%
COc1cc2nccc(Oc3ccc(NC(=S)NC(=O)c4ccccc4C)cc3)c2cc1OC: 80.2%
OCC(O)CCON=C1C(c2c(O)[nH]c3ccccc23)=Nc2ccccc21 (stereo not shown): 101%
COc1cc2ncnc(Nc3ccc(F)c(Cl)c3)c2cc1OCCCN1CCOCC1: 74.6%
CO[C@H]1C[C@@H]2CC[C@@H](C)[C@@](O)(O2)C(=O)C(=O)N2CCCC[C@H]2C(=O)O[C@H]([C@H](C)C[C@@H]2CC[C@@H](O)[C@H](OC)C2)CC(=O)[C@H](C)/C=C(\C)[C@@H](O)[C@@H](OC)C(=O)[C@H](C)C[C@H](C)/C=C/C=C/C=C/1C: 99.1%
O=C1NC(=O)C(c2cn(CCCn3ccnc3)c3ccccc23)=C1Nc1ccccc1: 88.3%
NCCNc1ncc(C(N)=O)c(Nc2cccc(C(F)(F)F)c2)n1: 114%
CNC(=O)c1cc(Oc2ccc(NC(=O)Nc3ccc(Cl)c(C(F)(F)F)c3)cc2)ccn1: 40.2%
Nc1[nH]nc2nc3ccccc3nc12: 96.6%

Set 4
Cell line: HuT78
Tested at: 2 µM
Time: 48 h
Baseline: untreated
Quantity: viability
N[C@@H]1CCCN(c2c(/C=C3\SC(=O)NC3=O)cccc2-c2ccccc2)C1: 88.4%
COc1cc2nccc(Oc3ccc(NC(=O)NC4CC4)c(Cl)c3)c2cc1C(N)=O: 91.9%
Nc1cc(C(F)(F)F)c(-c2cc(N3CCOCC3)nc(N3CCOCC3)n2)cn1: 34.9%
O=C1NC(=O)C(c2ccccc2[N+](=O)[O-])=C1Nc1ccc(O)c(Cl)c1: 118%
Oc1ccc2ccccc2c1SSc1c(O)ccc2ccccc12: 102%
COc1cc(C(=O)NC2CCN(C)CC2)ccc1Nc1ncc2c(n1)N(C1CCCC1)CC(F)(F)C(=O)N2C: 6.78%
